Results collected from several papers.
Every numbered part comes from another study and shows a few of its results, in no order.

Set 1
Molecule: PhoQ, residues 284 288 289 292 302 303 GNNTDL
Method: Sort-seq
Measured: YFP reporter
Matrix: E. coli
Notes: PhoQ-PhoP variant library
Added: 10 µM Mg2+
Relative to: high Mg2+ state
Direction: higher = stronger signaling
target | fold induction
PhoP, residues 12 14 15 18 19 NFFVT (Escherichia coli, UniProt P23836) | 2.3
PhoP, residues 12 14 15 18 19 LHHYF (Escherichia coli, UniProt P23836) | 3.39
PhoP, residues 12 14 15 18 19 TPWTL (Escherichia coli, UniProt P23836) | 5.09
PhoP, residues 12 14 15 18 19 VGHWL (Escherichia coli, UniProt P23836) | 0.765

Set 2
Target: Prothrombin, mature alpha-thrombin (F2, Homo sapiens, UniProt P00734)
Method: aptamer microarray, sandwich
Form: DNA with 2'F-ANA
Matrix: in vitro
Tested at: 200 nM
Notes: whole 15-mer aptamer, many near background
Added: Cy3 exosite-II aptamer, 400 nM
Direction: higher = stronger binding
Strand: GGTTGGTGTGGTTGG
Modification | mean fluorescence intensity [a.u.]
2'F-ANA at 3 7 8 9 14 15 | 724
2'F-ANA at 5 6 7 8 12 13 14 | 94.2
2'F-ANA at 3 6 7 12 15 | 1330
2'F-ANA at 1 9 13 | 137
2'F-ANA at 1 2 3 5 7 8 9 10 11 12 13 | 60.8
2'F-ANA at 3 4 6 7 9 10 12 13 | 226
2'F-ANA at 7 14 | 289

Set 3
Target: Interferon regulatory factor 5, full length, phosphomimetic (IRF5, Homo sapiens, UniProt Q13568-2, residues 1-514, K96S/S451D/S453D/S456D/S462D)
Method: protein-binding microarray
Form: double-stranded DNA, one strand shown
Matrix: in vitro
Tested at: 250 nM
Notes: 60-bp whole probe
Added: salmon DNA 0.4 mg/ml
Relative to: random background probes
Direction: higher = stronger binding
Constant ends, left off below: GCCTAGCAC … GTCTTGATTCGCTTGACGCTGCTG
Strand | log fluorescence [z-score]
GACGGAGTGGACACTGGGGACGTGCTA | -0.515
TTAGGTATCGGTCTCCGTTAGTGCTAG | 6.79
GACGGTATCTGTTTCGGGACGTGCTAG | 4.24
TTGGATCTCAGTATCGATTAGTGCTAG | 5.92
TTGTAGATGCCTTTCTCTTGGTGCTAG | 0.36
TTAGGTTCTCTTTTCCTTTAGTGCTAG | 0.624

Set 4
Target: Hepatocyte nuclear factor 3-alpha (Foxa1, Mus musculus, UniProt P35582, residues 1-468, full length assumed)
Method: EMSA with sequencing
Form: double-stranded DNA, one strand shown
Matrix: in vitro
Tested at: 10 and 20 nM
Notes: whole designed probe, mean of two concentrations, ends assumed
Relative to: negative control set to 0
Direction: higher = stronger binding
Constant ends, left off below: GTGAGCGGTGCCCATTGATGGGGAAC … TTTCACTGGGATCGTGGGGAC
Construct (chain): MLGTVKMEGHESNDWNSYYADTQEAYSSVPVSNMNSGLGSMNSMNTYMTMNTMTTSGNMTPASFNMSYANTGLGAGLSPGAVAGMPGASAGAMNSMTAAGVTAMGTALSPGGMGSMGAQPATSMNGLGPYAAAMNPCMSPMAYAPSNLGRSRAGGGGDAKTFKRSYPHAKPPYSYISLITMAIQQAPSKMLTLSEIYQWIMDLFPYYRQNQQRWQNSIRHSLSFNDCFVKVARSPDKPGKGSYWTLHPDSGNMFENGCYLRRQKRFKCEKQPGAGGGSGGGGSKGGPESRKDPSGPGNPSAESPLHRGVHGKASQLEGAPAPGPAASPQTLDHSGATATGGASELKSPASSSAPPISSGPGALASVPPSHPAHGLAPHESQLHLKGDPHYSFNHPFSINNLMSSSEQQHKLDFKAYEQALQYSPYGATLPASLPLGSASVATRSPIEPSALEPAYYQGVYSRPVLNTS
Strand | normalised bound fraction [ratio]
CACAGAGTTCAAAGTTGGCTGAGAAAATATACCAGTTGTCCTTGAAACATTCACTGTATTTGATGGCTATCTTTTCTCTAAACATATTGTAATGCAAATATAAAATTGTTTTGTTTTATAAAACAATAGAATACATCAGCTGAAGTTACCCCCAAAAGAAATGAAAGAAACTTCTGGGTGTGCCCTCAAAATT | 0.215
TAGTAGACAATAACCATGAAGTCTAACTTCCCTATAGCCAAGTGATCTCAGATAATTCCCTTCATGCAGTGACCACAACCCACAGAAAACGCATGTTTATATTATGACTCAGTGCATACATTCAGGCACACATTCACACTATGTGATAGACTCTATTTGTTAAAATGGTGTAATCTATTTTTTTTATTCTATT | 0.205
ATCTTCCCCCTCTTCCTTGCCCCACCAGCTCACCTTCCCGGGTCAAAGTAAACAAGTGTTTACTTTGAAGCCGGCATTCGTTAACCCTCTTCACGCGCATACTGCTGTTTGCTCTGGATGAATCATGGTCCTTTGGCGACGCCAGGCTCCGGGAGAGCAAAGCACCGTGTCAGGGCCATGATCCGGGGTGGCC | 0.451
ATTGAATTATAAAGTATTCCAGATTCACTAAAACCACTAGAGTCACAGACATAGGCTTTCTATAAAATACAGTGTGCATTTGTCAGTCTTTCCTTGTTTACTTTCCTTTAGTCCCATTTTCACCACAGCTGGGTTACTTGGTGCCAACCAGAACTCTGCCTCCCTCCACCTTAAACTATAAATCTTTATGCAA | 0.377
AGCATTAACTCAAGCTGTTAGAATCAAGAATCCTAAGGAAAACAGATAGAAATAAATTACTGTATAAAATAGAAATGACTATATTGAAATAAGTAATCTTGGAATAACTAAATATTTTTCAAATAAATTATTAGTGGGCCTATGAGGAAAATAAGGAAAAAGCAATATAAATAAAAAGCAAATAAATAAAACT | 0.423

For quick reference, copied from above (set 4):
Strand | normalised bound fraction [ratio]
TAGTAGACAATAACCATGAAGTCTAACTTCCCTATAGCCAAGTGATCTCAGATAATTCCCTTCATGCAGTGACCACAACCCACAGAAAACGCATGTTTATATTATGACTCAGTGCATACATTCAGGCACACATTCACACTATGTGATAGACTCTATTTGTTAAAATGGTGTAATCTATTTTTTTTATTCTATT | 0.205
